Published values from different studies.
Parts stem from different laboratories: compare values within a part only. Positions count from the first letter of the parent shown.

Block 1
Target: CCNE1, cyclin fold, Cln2 fusion (human)
Method: yeast growth competition, sequencing
Medium: yeast
Notes: strong parent motif
Reference: not given
Reading: higher = stronger binding
Quantity: normalised enrichment score
Starting sequence: CDKN1A docking peptide (human); SKACRRLFGPVDS
D12M: 4.6
G9S: 5.84
R5G: 0.357
F8K: 0.108
A3I: 2.07
D12R: 3.05
R5M: 0.251
R6S: 1.67
A3T: 3.67
G9A: 6.06
K2I: 3.49
C4E: -0.0619
R5C: 0.571
F8C: 0.302
A3R: 0.1
V11E: 6.7
L7N: 0.148
A3G: 2.72

Block 2
Target: Prothrombin, mature alpha-thrombin (F2, Homo sapiens, UniProt P00734)
Method: aptamer microarray, sandwich
Form: DNA with 2'F-ANA
Medium: in vitro
Concentration: 200 nM
Notes: whole 15-mer aptamer, many near background
With: Cy3 exosite-II aptamer, 400 nM
Reading: higher = stronger binding
Quantity: mean fluorescence intensity
Sequence: GGTTGGTGTGGTTGG
2'F-ANA at 3 4 5 8 9 14 15: 48.3 a.u.
2'F-ANA at 1 2 5 6 7 9 12 14 15: 52.1 a.u.
2'F-ANA at 1 2 3 6 7 8 10 13 15: 103 a.u.
2'F-ANA at 4 6 7 8 10 11 12 13 15: 84.4 a.u.
2'F-ANA at 1 4 5 8 9 12: 108 a.u.
2'F-ANA at 1 2 3 4 6 8 9 10 12: 95.9 a.u.
2'F-ANA at 2 3 4 7 8 10 12 13: 331 a.u.
2'F-ANA at 1 5 6 8 10 12 14 15: 50.8 a.u.
2'F-ANA at 1 6 7 8 9: 219 a.u.
2'F-ANA at 1 6 7 9 10 11 12 13 14: 49 a.u.
2'F-ANA at 2 4 6 7 11 12 15: 388 a.u.
2'F-ANA at 1 2 5 9 10 13 15: 44.4 a.u.
2'F-ANA at 1 2 4 6 10 12 15: 54.4 a.u.
2'F-ANA at 1 2 7 8 9 10 11 12 13 14: 50.1 a.u.
2'F-ANA at 3 5 6 7 10 11 14 15: 50.3 a.u.
2'F-ANA at 1 5 6 11 12 14 15: 45.4 a.u.
2'F-ANA at 2 3 6 7 8 9 10 11 12 13 14: 251 a.u.
2'F-ANA at 1 5 8 9 10 11 13 15: 51 a.u.
2'F-ANA at 2 3 4 9 11 13 14 15: 242 a.u.
2'F-ANA at 1 2 4 6 8 9 13: 79.7 a.u.
2'F-ANA at 1 2 4 5 6 8 10 11 12: 62.9 a.u.
2'F-ANA at 2 4 6 7 10 15: 81.1 a.u.
2'F-ANA at 3 4 5 7 9 10 14: 49.8 a.u.

Block 3
Target: ABI1, truncated, D143A, DHFR fusion (Arabidopsis thaliana, UniProt P49597)
Method: DHFR PCA, dose-response
Medium: yeast
Notes: Hill fit, mean, not affinity
With: (+)-ABA, dose series
Reading: lower = more sensitive
Quantity: ABA EC50
Starting sequence: PYL1, truncated, DHFR fusion (Arabidopsis thaliana, UniProt Q8VZS8); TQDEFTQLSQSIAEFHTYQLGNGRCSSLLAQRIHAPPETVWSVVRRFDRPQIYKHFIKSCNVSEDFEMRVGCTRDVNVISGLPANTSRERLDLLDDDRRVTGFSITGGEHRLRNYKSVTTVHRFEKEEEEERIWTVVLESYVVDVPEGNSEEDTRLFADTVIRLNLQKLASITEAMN
R99T: 84.2 µM
D3P: 2.32 µM
H55L: 0.745 µM
G23M: 8.05 µM
S117T: 312 µM
R49I: 18.2 µM
R49W: 129 µM
L93W: 14.4 µM
R49C: 2.53 µM
A35C: 6.15 µM
E131I: 4.13 µM
V142L: 14.7 µM
D96I: 442 µM
S150M: 57.7 µM
S59P: 657 µM
L112M: 5.99 µM
C25P: 329 µM
H110G: 273 µM
T119Q: 6.56 µM
T1Y: 3.7 µM
Q167M: 1.97 µM
L82V: 13.8 µM
I79Y: 4.36 µM

Block 4
Target: Histone acetyltransferase KAT6A, both winged helices, GST fusion (KAT6A, Homo sapiens, UniProt Q92794, residues 1-181)
Method: protein binding microarray
Form: double-stranded DNA, one strand shown
Medium: in vitro
Concentration: not given
Notes: 8-mer, flanks averaged, mean of 2 arrays, mostly near background
Reference: not given
Reading: higher = stronger binding
Quantity: E-score
Target sequence (chain): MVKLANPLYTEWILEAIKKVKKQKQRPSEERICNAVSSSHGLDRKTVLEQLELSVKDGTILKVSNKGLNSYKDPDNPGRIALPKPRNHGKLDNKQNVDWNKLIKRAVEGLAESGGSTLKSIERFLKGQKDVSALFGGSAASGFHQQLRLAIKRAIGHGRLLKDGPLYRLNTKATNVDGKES
AGTCATTA: -0.125
GAGGCTGA: -0.211
GAGCAGCA: -0.0809
AGGTAGAT: -0.13
TCGCGGAA: 0.291
ATGAAAGC: -0.0508
ATCACAGC: 0.00154
ACCAGGAT: -0.121
CGAGTGTA: 0.091
CGTGTTAA: 0.0141
AAGATTCC: -0.0584
AAGCATCC: 0.0261
CAACTGGG: -0.169
ACGAGCGG: 0.249
AAAACGGT: 0.0866
AATCAGCG: 0.104

Block 5
Target: Centromere-binding protein 1, full length, His-tagged (CBF1, Saccharomyces cerevisiae, UniProt P17106, residues 1-351)
UniProt P17106, sequence (whole entry, looked up): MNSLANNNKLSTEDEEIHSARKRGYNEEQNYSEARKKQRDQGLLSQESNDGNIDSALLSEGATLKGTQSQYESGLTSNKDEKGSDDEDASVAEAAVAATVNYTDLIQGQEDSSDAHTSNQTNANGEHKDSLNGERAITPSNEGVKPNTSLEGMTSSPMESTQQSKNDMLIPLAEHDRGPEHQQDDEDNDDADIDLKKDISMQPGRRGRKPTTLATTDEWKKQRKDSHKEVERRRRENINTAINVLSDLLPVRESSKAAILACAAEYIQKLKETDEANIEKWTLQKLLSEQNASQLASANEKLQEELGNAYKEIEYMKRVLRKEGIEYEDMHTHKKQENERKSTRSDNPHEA
Method: competition protein-binding microarray
Form: double-stranded DNA, one strand shown
Medium: in vitro
Concentration: 2 µM
Notes: whole 60-bp probe, lowest competitor level
With: Pho4 competitor, 0.05 µM
Reading: higher = stronger binding
Quantity: fluorescence intensity
AAAGCGGTAATTTTTCACGTGGGGTCAAATATCTATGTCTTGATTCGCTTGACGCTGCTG: 1010 a.u.
CGGGGTTAAGTTTTTCACGTGGCGTGCCGTCGGCAGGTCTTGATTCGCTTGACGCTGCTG: 487 a.u.
AAATTACTAAGTTGTCATGTGGGTGACGCCGTATGAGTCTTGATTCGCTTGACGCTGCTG: 193 a.u.
TAGCCCCCTATCTCCCACATGTTGGCATCTGTGAGGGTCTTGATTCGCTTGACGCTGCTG: 84.1 a.u.
CACCACTTCATTCCACCCGTGGTGACGCTGAGACAAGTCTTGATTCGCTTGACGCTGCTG: 58.5 a.u.
CATGATAATCTGCAACACAATCAAGGCCAGATTACTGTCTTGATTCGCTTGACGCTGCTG: 67.4 a.u.
CCTTCGAAGAAGTTGTTCGTGCCAGCCACAACGGAGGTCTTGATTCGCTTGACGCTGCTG: 70.5 a.u.
CGGGGTTAAGTTTTTCACGTGGTATGCTTGCAGCAGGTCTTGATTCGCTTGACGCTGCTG: 881 a.u.
TGCGCAACAACTTGTCACTGTACTTTATGTCTAGAAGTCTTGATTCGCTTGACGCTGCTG: 83.7 a.u.
GAGGCTTTCGATTACCATGTGCAATCTGTCTATGAAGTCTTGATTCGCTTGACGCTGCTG: 129 a.u.
CGTCCTAGTGATTGTTGGGTGGGTGCCATGAGGAAGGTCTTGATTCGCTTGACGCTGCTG: 99.7 a.u.
AGTCGAGTACGATTCACTGTGACGGTCATCCTAGATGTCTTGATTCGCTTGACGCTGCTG: 66.1 a.u.
CTGCGCTGCGGCCAGCCCGTGAGACCACCCGAGGGAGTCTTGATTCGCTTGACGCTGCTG: 63.1 a.u.
CCCAAACTCTCAAAGCACGATCTAGAGAACCAGCAGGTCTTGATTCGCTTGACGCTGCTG: 70.7 a.u.
GGGAGACACTTCCGTCACGTGAACCTCTATCTATTTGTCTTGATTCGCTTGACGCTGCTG: 4480 a.u.
CTTCTGTAAATTTGTCACTCCACTTGACGCGCCCCGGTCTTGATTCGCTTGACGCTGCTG: 99.4 a.u.

Repeated from above (block 1):
R6S: 1.67
A3R: 0.1
K2I: 3.49
L7N: 0.148
G9S: 5.84
R5C: 0.571
F8C: 0.302
V11E: 6.7
A3G: 2.72
